Results of several laboratories.
Several values in a cell are separate wells, animals, samples, runs or records. ± marks the error that the study gave.
UCHL1: Ubiquitin carboxyl-terminal hydrolase isozyme L1 (UCHL1, Homo sapiens, UniProt P09936)
UniProt P09936, sequence (whole entry, looked up): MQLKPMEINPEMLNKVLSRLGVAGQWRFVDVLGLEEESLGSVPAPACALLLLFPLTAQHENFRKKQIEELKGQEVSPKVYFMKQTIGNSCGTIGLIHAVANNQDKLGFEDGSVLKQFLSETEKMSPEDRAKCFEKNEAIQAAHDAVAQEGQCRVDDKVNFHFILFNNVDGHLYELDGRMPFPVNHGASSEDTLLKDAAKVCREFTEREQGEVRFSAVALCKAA

Structure (SMILES) = CC(C)=CC(=O)Nc1ccc(C2=C(c3ccc(O)cc3)C3OC2CC3S(=O)(=O)Oc2ccccc2)cc1 (stereo not shown); target or system = MCF-10A; assay = cell viability; conditions = 72 (unit not given); measurement = IC50; value = 11.2 ± 0.15 µM
Structure (SMILES) = C#Cc1cccc(Nc2ncnc3cc(OCCOC)c(OCCOC)cc23)c1; target or system = HPrEC normal prostate epithelial cells; assay = MTT; conditions = 0.2 µg/mL, 2% serum; measurement = viability; value = 86.5%
Structure (SMILES) = O=S(=O)(NCC(c1cccnc1)N1CCN(c2ccc(F)cc2)CC1)c1ccccc1 (stereo not shown); target or system = Trypanosoma cruzi; assay = reporter translation, Renilla luciferase mRNA translation; test system = cell-free extract; conditions = 40 µM; scale = relative to: DMSO; measurement = inhibition; value = -11.5%
Structure (SMILES) = CC(=NNC(=O)COc1ccc2c(C)c(Cc3ccccc3)c(=O)oc2c1C)c1ccc(Br)cc1; target or system = HPrEC normal prostate epithelial cells; assay = MTT; conditions = 1.6 µg/mL, 2% serum; measurement = viability; value = 73%
Structure (SMILES) = C/C=C/C(=O)Nc1ccc(C2=C(c3ccc(O)cc3)C3OC2CC3S(=O)(=O)Oc2ccccc2)cc1 (stereo not shown); target or system = MCF-10A; assay = cell viability; conditions = 72 (unit not given); measurement = IC50; value = 20.9 ± 1.82 µM
Structure (SMILES) = C/C(CC1CC2=C(CC1(C)C)C(C)(C)CCC2)=N\NC(N)=S (stereo not shown); target or system = Trypanosoma cruzi; assay = reporter translation, Renilla luciferase mRNA translation; test system = cell-free extract; conditions = 40 µM; scale = relative to: DMSO; measurement = inhibition; value = 2.7%
Structure (SMILES) = Cc1cc(C(=O)NC(C)(C)COc2cccc3c2C(N)=NS(=O)(=O)N3)cc(C)n1; target or system = human peripheral blood lymphocytes; assay = CBPI, preliminary test; conditions = 20 µg/mL, 4 h; scale = relative to: vehicle control; measurement = cytotoxicity; value = 1%
Structure (SMILES) = CCOc1cc(C=C(C#N)C(=O)Nc2nccs2)cc(Cl)c1O; target or system = UCHL1; assay = covalent, intact protein LC-MS; conditions = 12.5 µM; measurement = labelling; value = 31.9%
Structure (SMILES) = Cc1ncc([N+](=O)[O-])n1CCOC(=O)c1ccccc1; target or system = pigeon embryo fibroblasts; measurement = CC50; value = ~200 µM
Structure (SMILES) = CC(C)CC(=O)Nc1ccc(C2=C(c3ccc(O)cc3)[C@H]3O[C@@H]2CC3S(=O)(=O)N(CC(F)(F)F)c2ccc(O)cc2)cc1 (mixture of isomers); target or system = MCF-10A; assay = cell viability; conditions = 72 (unit not given); measurement = IC50; value = 21.2 ± 0.89 µM
Structure (SMILES) = CC(=O)O[C@H]1C(=O)[C@@]2(C)[C@H]([C@H](OC(=O)c3ccccc3)[C@]3(O)C[C@H](OC(=O)[C@H](O)[C@@H](NC(=O)c4ccccc4)c4ccccc4)C(C)=C1C3(C)C)[C@]1(OC(C)=O)CO[C@@H]1C[C@@H]2O; target or system = CHP-212 parental; assay = SRB; conditions = 10 µM; measurement = viability; value = 6.25% and 5.78%
Structure (SMILES) = N#CC(=Cc1cc(F)ccc1F)C(=O)Nc1ccc(Cl)cc1Cl; target or system = UCHL1; assay = covalent, intact protein LC-MS; conditions = 12.5 µM; measurement = labelling; value = 18.1%
Structure (SMILES) = COC[C@@H](CC(C)C)NC(=O)c1ccc(C)c(C)c1; target or system = primary human lymphocytes; assay = item: structural aberrations; conditions = 225 µg/mL, 4 h, without S9; measurement = cells with aberrations; value = 0%
Structure (SMILES) = Nc1ccc(C2=C(c3ccc(O)cc3)C3OC2CC3S(=O)(=O)N(CC(F)(F)F)c2ccc(O)cc2)cc1 (stereo not shown); target or system = MCF-10A; assay = cell viability; conditions = 72 (unit not given); measurement = IC50; value = 32.3 ± 0.66 µM
Structure (SMILES) = COc1ncnc(C2CC2)c1-c1ncc2cnn(Cc3ccc(-c4nc(C(F)(F)F)cn4C(C)C)cc3)c2n1; target or system = CHP-212 parental; assay = SRB; conditions = 12.5 µM; measurement = viability; value = 82% and 82.1%
Structure (SMILES) = C[C@]12CC[C@@H]3c4ccc(O)cc4C[C@@H](CCCCCCCCC[S+]([O-])CCCC(F)(F)C(F)(F)F)[C@H]3[C@@H]1CC[C@@H]2O (stereo partly shown); target or system = MCF7; assay = CCK-8; conditions = 50 nM; scale = relative to: untreated; measurement = viability; value = 50.2% and 54.2% and 58.1%

Repeated from above:
Structure (SMILES) = CC(=NNC(=O)COc1ccc2c(C)c(Cc3ccccc3)c(=O)oc2c1C)c1ccc(Br)cc1; target or system = HPrEC normal prostate epithelial cells; assay = MTT; conditions = 1.6 µg/mL, 2% serum; measurement = viability; value = 73%
